{"data": "Earlier results, collected from citations in different studies", "note": "Protocols differ between the studies behind these lines. Numbers after ± are the reported error."}
{"Structure (SMILES)": "CCn1c(=O)c(-c2cc(NC(=O)Nc3ccccc3)c(F)cc2Br)cc2cnc(N)cc21", "test system": "human patients", "setting": "150 mg once daily, from 0 to 12, geometric mean", "quantity": "AUC", "value": "7138 ± 44.4 ng·h/mL"}
{"Structure (SMILES)": "Ic1cc2nc(c1)CNCCNCCNC2.[Cu+2]", "assay": "cyclic voltammetry", "test system": "DMF", "setting": "scan rate 100 mV/s", "how to read": "relative to: Fc/Fc+", "quantity": "cathodic peak potential", "value": "-907 mV"}
{"Structure (SMILES)": "O=C(O)CCCCC1(N(CC(=O)O)CC(=O)O)CN(CC(=O)O)CCN(CC(=O)O)C1", "assay": "pH-potentiometry, refers to: logK2H", "test system": "0.15 M NaCl", "setting": "25 °C", "quantity": "protonation constant (log)", "value": 6.9}
{"Structure (SMILES)": "[Cu+2].c1cc2nc(c1)CNCCNCCNC2", "assay": "cyclic voltammetry", "test system": "DMF", "setting": "scan rate 100 mV/s", "how to read": "relative to: Fc/Fc+", "quantity": "cathodic peak potential", "value": "-995 mV"}
{"Structure (SMILES)": "CC1(N(CC(=O)O)CC(=O)O)CN(CC(=O)O)CCN(CC(=O)O)C1", "assay": "pH-potentiometry, refers to: logK1H", "test system": "0.15 M NaCl", "setting": "25 °C", "quantity": "protonation constant (log)", "value": 10.1}
{"Structure (SMILES)": "FC(F)(F)c1cc2nc(c1)CNCCNCCNC2.[Cu+2]", "assay": "cyclic voltammetry", "test system": "DMF", "setting": "scan rate 100 mV/s", "quantity": "peak separation ΔE", "value": "182 mV"}
{"Structure (SMILES)": "Cc1ccc2c(c1)nc(CCN1C(=O)c3cccc4cccc(c34)C1=O)n2-c1ccncc1", "test system": "Sprague-Dawley rat", "setting": "oral, 10 mg/kg", "quantity": "AUC(0-inf)", "value": "70 ng·h/mL"}
{"Structure (SMILES)": "C/C(N)=N/C(=N\\S(=O)(=O)c1ccc(C(F)(F)F)cc1)N1C[C@H](c2ccccc2)C(c2ccc(Cl)cc2)=N1", "test system": "mouse", "quantity": "t1/2", "value": "4 h"}
{"Structure (SMILES)": "O=C(O)CN1CCN(CC(=O)O)CCN(CC(=O)O)CC1", "test system": "0.1 M Me4NCl", "quantity": "log KH2", "value": 5.74}
{"Structure (SMILES)": "COc1ccc(Nc2nc(Nc3ccc(OCC[18F])cc3)ncc2Br)cc1", "test system": "S180 tumour-bearing mice", "setting": "intravenous, 120 min", "how to read": "relative to: tumour over muscle", "quantity": "tumour to tissue ratio", "value": 1.96}
{"note": "Some of these lines once more:"}
{"Structure (SMILES)": "CCn1c(=O)c(-c2cc(NC(=O)Nc3ccccc3)c(F)cc2Br)cc2cnc(N)cc21", "test system": "human patients", "setting": "150 mg once daily, from 0 to 12, geometric mean", "quantity": "AUC", "value": "7138 ± 44.4 ng·h/mL"}
